Measurements collected from several papers.
Compare with care: the assays were run in different laboratories. ± gives the spread as reported.

Structure (SMILES) | tested on | test | system | conditions | how to read | measurement | value
Cc1cc(Nc2nc(C[C@@]3(C(=O)O)CCN(Cc4cccc(Cl)c4F)[C@H](C)C3)cc(C)c2F)n[nH]1 |  |  | BALB/c nude mouse, female, NCI-H446 xenograft, tumour | oral, 10 mg/kg |  | Tmax | ≤ 1 h
N=C(N)NCCC[C@@H]1NC(=O)[C@H](CCCCNC(=O)CNC(=O)CNC(=O)CNC(=O)CC[C@H](NC(=O)CCOCCOCCOCCOCCNC(=O)CC[C@H](NC(=O)CN2CCN(CC(=O)O)CCN(CC(=O)O)CCN(CC(=O)O)CC2)C(=O)NCCOCCOCCOCCOCCC(=O)N[C@@H](CCC(=O)NCC(=O)NCC(=O)NCC(=O)NCCCC[C@@H]2NC(=O)[C@@H](Cc3ccccc3)NC(=O)[C@H](CC(=O)O)NC(=O)CNC(=O)[C@H](CCCNC(=N)N)NC2=O)C(=O)NCC(=O)NCC(=O)NCC(=O)NCCCC[C@@H]2NC(=O)[C@@H](Cc3ccccc3)NC(=O)[C@H](CC(=O)O)NC(=O)CNC(=O)[C@H](CCCNC(=N)N)NC2=O)C(=O)NCC(=O)NCC(=O)NCC(=O)NCCCC[C@@H]2NC(=O)[C@@H](Cc3ccccc3)NC(=O)[C@H](CC(=O)O)NC(=O)CNC(=O)[C@H](CCCNC(=N)N)NC2=O)NC(=O)[C@@H](Cc2ccccc2)NC(=O)[C@H](CC(=O)O)NC(=O)CNC1=O [indium-111 labelled] |  |  | female athymic nude mouse | intravenous, 3 µCi, 4 h, U-87 MG glioma xenograft | reference: tumour over muscle | tumour to muscle ratio | 18.1 ± 2.95
CCCC[C@H](NC(=O)CNC(=O)CNC(=O)c1ccc(NN)nc1)C(=O)N[C@H]1CC(=O)NCCCC[C@@H](C(N)=O)NC(=O)[C@H](Cc2c[nH]c3ccccc23)NC(=O)[C@H](CCCNC(=N)N)NC(=O)[C@@H](Cc2ccccc2)NC(=O)[C@H](Cc2c[nH]cn2)NC1=O [technetium-99m labelled] |  |  | C57 mouse, B16/F1 melanoma, intestines | intravenous, 0.5 h |  | uptake | 1.41 ± 0.14 %ID
CCOC(=O)[C@@H]1Cc2c(cc([N+](=O)[O-])cc2[N+](=O)[O-])[C@H](O)[C@]12C(=O)Nc1ccc(Br)cc12 |  |  | Sprague-Dawley rat, plasma | oral, 15 mg/kg |  | Tmax | 4.03 h
CCCCCCCC/C=C\CCCCCCCCOP(O)(O)=S.N |  |  | mouse, male, nonirradiated | sc, dose not given |  | Tmax | 0.5 h
CC(C)C[C@@H](NC(=O)[C@@H](Cc1ccccc1)NC(=O)[C@H](N)Cc1ccccc1)C(=O)N[C@H](CCCCN)C(=O)N1CCC(N)(C(=O)O)CC1 |  |  | human, plasma | intravenous, 15 µg/kg |  | Tmax | 0.1 h
CCC(CC)OC1C=C(C(=O)OC(C)OC(=O)C(N)C(C)C)CC(NC(=N)N)C1NC(C)=O (mixture of isomers) |  |  | mouse (fed), plasma | oral, 10 mg/kg |  | Tmax | 2.4 ± 1.3 h
CC(=CCC(O)C(C)=Cc1csc(C)n1)CC=CC(C)C(O)C(C)C(=O)C(C)(C)C(O)CC(=O)O (stereo not drawn) |  |  | human, plasma | intravenous infusion, 36 mg/m2 KOS-1584, 3 h infusion, cycle 1 |  | Tmax | 3.38 ± 0.48 h
CCc1c2c(nc3ccc(OC4OC(C(=O)O)C(O)C(O)C4O)cc13)-c1cc3c(c(=O)n1C2)COC(=O)C3(O)CC (stereo not drawn) |  |  | human patients, plasma | intravenous, 32 mg/m^2 of parent drug |  | Tmax | 5.69 h
N#CC1(c2ccc3c(N)ncnn23)OC(COP(=O)(O)OP(=O)(O)OP(=O)(O)O)C(O)C1O (stereo not drawn) |  | LC-MS/MS | CD-1 mouse male, kidney | oral, 100 mg/kg of remdesivir |  | Tmax | 2 h
CN[C@](C)(C[18F])C(=O)O | MDA-MB-468 tumour model |  | host not given, heart | 30 min, tumour-bearing |  | tracer uptake | 2.7 %ID/g
CCCCCCCCC(=O)NCc1ccc(O)c(OC)c1 | mAb 6-AT6 | antibody binding, indirect competitive ELISA |  | together with: coating antigen 3-OVA |  | IC50 | > 4 µg/mL

Excerpt of the above:
Structure (SMILES) | tested on | test | system | conditions | how to read | measurement | value
N#CC1(c2ccc3c(N)ncnn23)OC(COP(=O)(O)OP(=O)(O)OP(=O)(O)O)C(O)C1O (stereo not drawn) |  | LC-MS/MS | CD-1 mouse male, kidney | oral, 100 mg/kg of remdesivir |  | Tmax | 2 h
